{"data": "Experimental data of several laboratories", "note": "Numbered parts are unrelated; each lists some results of a single study. Positions count from the first letter of the parent shown."}
{"data": "Block 1", "target": "ABI1, truncated, D143A, DHFR fusion (Arabidopsis thaliana)", "technique": "DHFR PCA, deep sequencing", "sample": "yeast", "notes": "methotrexate growth selection, single substitutions", "together with": "(+)-ABA 4.8 µM", "reference": "wild-type fitted maximum", "reading": "higher = stronger binding", "starting sequence": "PYL1, truncated, DHFR fusion (Arabidopsis thaliana); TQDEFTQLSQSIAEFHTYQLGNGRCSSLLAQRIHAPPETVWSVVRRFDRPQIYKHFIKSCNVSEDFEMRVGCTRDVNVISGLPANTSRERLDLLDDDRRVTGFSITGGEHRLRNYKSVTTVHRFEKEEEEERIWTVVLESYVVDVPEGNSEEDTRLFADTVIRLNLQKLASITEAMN"}
{"Change": "I33P", "relative binding score [%]": 18.7}
{"Change": "Q19N", "relative binding score [%]": 75.1}
{"Change": "M68V", "relative binding score [%]": 63.1}
{"Change": "R24I", "relative binding score [%]": 51.3}
{"Change": "R155V", "relative binding score [%]": 59.8}
{"Change": "F124D", "relative binding score [%]": 65.4}
{"Change": "R98H", "relative binding score [%]": 41.6}
{"data": "Block 2", "target": "Histone acetyltransferase KAT6A, both winged helices, GST fusion (KAT6A, Homo sapiens, UniProt Q92794, residues 1-181)", "technique": "protein binding microarray", "form": "double-stranded DNA, one strand shown", "sample": "in vitro", "tested at": "not given", "notes": "8-mer, flanks averaged, mean of 2 arrays, mostly near background", "reference": "not given", "reading": "higher = stronger binding", "Construct (chain)": "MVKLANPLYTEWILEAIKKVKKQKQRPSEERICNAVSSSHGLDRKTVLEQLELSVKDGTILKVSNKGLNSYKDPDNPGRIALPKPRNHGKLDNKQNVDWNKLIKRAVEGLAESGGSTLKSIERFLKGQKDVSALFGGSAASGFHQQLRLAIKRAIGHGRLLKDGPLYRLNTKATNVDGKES"}
{"Oligonucleotide": "AGTAGAAT", "E-score": -0.164}
{"Oligonucleotide": "CGATGGCG", "E-score": 0.214}
{"Oligonucleotide": "CGAGGTTA", "E-score": 0.016}
{"Oligonucleotide": "ACTAAAGA", "E-score": -0.189}
{"Oligonucleotide": "CTAGGGCC", "E-score": -0.0383}
{"Oligonucleotide": "GCTACTGA", "E-score": -0.0731}
{"Oligonucleotide": "ACAACCCT", "E-score": -0.105}
{"Oligonucleotide": "CCAATTCG", "E-score": -0.116}
{"Oligonucleotide": "GCTTAAGA", "E-score": 0.0568}
{"Oligonucleotide": "CACCTAGG", "E-score": -0.0782}
{"Oligonucleotide": "CCTATGGA", "E-score": -0.113}
{"data": "Block 3", "target": "Interferon regulatory factor 5, full length, phosphomimetic (IRF5, Homo sapiens, UniProt Q13568-2, residues 1-514, K96S/S451D/S453D/S456D/S462D)", "technique": "protein-binding microarray", "form": "double-stranded DNA, one strand shown", "sample": "in vitro", "tested at": "250 nM", "notes": "60-bp whole probe", "together with": "salmon DNA 0.4 mg/ml", "reference": "random background probes", "reading": "higher = stronger binding", "constant ends, left off below": "GCCTAGCAC … GTCTTGATTCGCTTGACGCTGCTG"}
{"Oligonucleotide": "GACGGTATCCTTATCCCGACGTGCTAG", "log fluorescence [z-score]": 0.00233}
{"Oligonucleotide": "TTAGGTTTCCTCATCCTTTAGTGCTAG", "log fluorescence [z-score]": 0.5}
{"Oligonucleotide": "GACGATGTCAGTTCCGAGACGTGCTAG", "log fluorescence [z-score]": -0.135}
{"Oligonucleotide": "TCACCTATAGGTTCAACACTGTGCTAG", "log fluorescence [z-score]": 0.00899}
{"Oligonucleotide": "TTAGAACTGGGGTTTCGTTTAGTGCTA", "log fluorescence [z-score]": 2.66}
{"data": "Mixed results"}
{"Molecule": "PhoQ, residues 284 288 289 292 302 303 WVSSAF", "target": "PhoP, residues 12 14 15 18 19 LHSVQ (Escherichia coli, UniProt P23836)", "assay": "Sort-seq, item: YFP reporter", "test system": "E. coli", "conditions": "PhoQ-PhoP variant library, together with: 10 µM Mg2+", "how to read": "reference: high Mg2+ state, higher = stronger signaling", "endpoint": "fold induction", "value": 7.58}
{"note": "A few entries again (block 1):"}
{"Change": "I33P", "relative binding score [%]": 18.7}
{"Change": "F124D", "relative binding score [%]": 65.4}
{"Change": "M68V", "relative binding score [%]": 63.1}
{"Change": "Q19N", "relative binding score [%]": 75.1}
